Assay results from different studies.
A part holds a random share of what one study measured.

Sample 1
Target: Phosphate system positive regulatory protein PHO4, full length, GST-tagged (PHO4, Saccharomyces cerevisiae, UniProt P07270, residues 1-312)
Technique: competition protein-binding microarray
Form: double-stranded DNA, one strand shown
Matrix: in vitro
Concentration: 2 µM
Notes: whole 60-bp probe, lowest competitor level
Together with: Cbf1 competitor, 0.05 µM
Reading: higher = stronger binding
Target sequence (chain): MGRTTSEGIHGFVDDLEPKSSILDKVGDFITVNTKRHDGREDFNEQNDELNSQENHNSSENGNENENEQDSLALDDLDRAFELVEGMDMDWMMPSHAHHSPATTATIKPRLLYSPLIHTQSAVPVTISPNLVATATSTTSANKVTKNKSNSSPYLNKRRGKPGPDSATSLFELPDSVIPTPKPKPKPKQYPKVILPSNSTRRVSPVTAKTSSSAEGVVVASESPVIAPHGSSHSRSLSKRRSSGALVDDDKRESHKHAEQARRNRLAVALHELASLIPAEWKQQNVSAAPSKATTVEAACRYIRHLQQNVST
`AGACAAGGCAACAAAGAAATGTCGTTTTTAATTTTTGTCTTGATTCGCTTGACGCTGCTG` gave a fluorescence intensity of 3670 a.u.
`TAATAGGCCTGCTGGCACGTTGTTGAATGGCAGATGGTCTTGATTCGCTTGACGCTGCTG` gave a fluorescence intensity of 13600 a.u.
`GTTGCTTGCTAATTGCATGATCAAGTTGGGCCGATGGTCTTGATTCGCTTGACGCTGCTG` gave a fluorescence intensity of 3990 a.u.
`CATACCCAACCTTGCATAGTGGGTGAAGATATTTGTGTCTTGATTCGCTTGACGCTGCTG` has a fluorescence intensity of 5220 a.u.
For `CTTTCCCGATCTTTTCACGTGCGCTTAGCACATTTGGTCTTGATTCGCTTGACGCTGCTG`, the fluorescence intensity was 16000 a.u.
The fluorescence intensity of `CTAACGAAGGTTTGAGAGGTGGGTGACAAGCCAAGTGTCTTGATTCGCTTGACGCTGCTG` is reported as 3550 a.u.
`TTGGTCCAGTTCTCGCCCGTGATGGGAGAACAAGTAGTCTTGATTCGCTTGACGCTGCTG` gave a fluorescence intensity of 5660 a.u.
`CATTGCCGGCCCGGCCACGTGCAAAGTCTGGTTGAGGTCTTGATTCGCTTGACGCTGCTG` has a fluorescence intensity of 19000 a.u.
`TATTTTTTTAAGCAGAACGTGCTTTGCTCTCCCTTTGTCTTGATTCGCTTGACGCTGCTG` gave a fluorescence intensity of 13400 a.u.
The fluorescence intensity of `CGTCCTAGTGATTGGATTGTGGGTGCCATGAGGAAGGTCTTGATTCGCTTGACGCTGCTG` is reported as 6800 a.u.
For `TCTCTTTATTAATTACACGTGGTGATGACTCATTGGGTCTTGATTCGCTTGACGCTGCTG`, the fluorescence intensity was 19900 a.u.
The fluorescence intensity of `CTAACGAAGGTTTGACAAGTGGGTGACAAGCCAAGTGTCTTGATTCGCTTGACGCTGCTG` is reported as 3650 a.u.
The fluorescence intensity of `CTGTAGACTCAGAGTCAGCTGATTGTTGGGTATGTGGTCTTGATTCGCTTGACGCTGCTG` is reported as 3170 a.u.
The fluorescence intensity of `CATACCCAACCTTGATCCGTGGGTGAAGATATTTGTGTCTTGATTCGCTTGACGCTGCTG` is reported as 5150 a.u.
The fluorescence intensity of `AAAGCGGTAATTTTTCACGTGAGCTCACATATCTATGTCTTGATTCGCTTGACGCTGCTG` is reported as 9790 a.u.
For `TGCGCAACAACTTGCCGTGTGGGTGTATGTCTAGAAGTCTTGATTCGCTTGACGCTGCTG`, the fluorescence intensity was 6150 a.u.
The fluorescence intensity of `ACCTTGGTCCAAGGTCACGAGGAGCTGTCCAAGGTCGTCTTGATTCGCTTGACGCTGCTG` is reported as 7190 a.u.
`ATTCACCAATTCCGTCACACTCAGCTAACTTCTCCTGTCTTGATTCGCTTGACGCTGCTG` gave a fluorescence intensity of 4710 a.u.
`GTCTTGTCTCATTGTCACTCCACTTTCCCCACTTCAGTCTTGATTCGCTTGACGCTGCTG` gave a fluorescence intensity of 4310 a.u.
The fluorescence intensity of `AAATTACTAAGTTGTCAGGTGGGTGACGCCGTATGAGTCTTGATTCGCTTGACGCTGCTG` is reported as 4720 a.u.

Sample 2
Target: PABPC1L2, full length, GST fusion (mouse, UniProt A0ABA7IW68)
Technique: RNAcompete
Form: RNA
Matrix: in vitro
Concentration: 20 nM
Notes: 7-mer, probes averaged, single round
Reference: mean of 7-mers
Reading: higher = stronger binding
Target sequence (chain): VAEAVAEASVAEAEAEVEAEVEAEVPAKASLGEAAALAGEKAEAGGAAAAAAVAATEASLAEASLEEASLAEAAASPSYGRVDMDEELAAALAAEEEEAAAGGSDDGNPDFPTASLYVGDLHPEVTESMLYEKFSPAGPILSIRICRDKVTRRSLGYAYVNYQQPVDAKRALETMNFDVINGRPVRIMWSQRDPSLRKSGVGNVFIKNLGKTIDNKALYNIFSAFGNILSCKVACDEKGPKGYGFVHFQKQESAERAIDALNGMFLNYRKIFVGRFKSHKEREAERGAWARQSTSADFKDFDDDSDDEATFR
`UUGAGAC` gave a 7-mer Z-score of -0.119.
With `AUACAUG` the 7-mer Z-score was 0.0334.
For `UGUGGUC`, the 7-mer Z-score was -0.222.
The 7-mer Z-score of `CGGUUAA` is reported as 0.119.
With `UAGACUG` the 7-mer Z-score was -0.115.
The 7-mer Z-score of `ACCUAUA` is reported as -0.0138.
With `AGCGUCC` the 7-mer Z-score was -0.0156.
`UUAUGGC` gave a 7-mer Z-score of 0.108.
`GGAUGGG` has a 7-mer Z-score of 0.468.
The 7-mer Z-score of `GGAGCGU` is reported as 0.00617.
The 7-mer Z-score of `GCGCCGG` is reported as -0.269.
With `UAUACGU` the 7-mer Z-score was -0.0627.
For `CGGAGAG`, the 7-mer Z-score was 0.0279.
The 7-mer Z-score of `GAAACAU` is reported as 1.5.
For `ACGCCCC`, the 7-mer Z-score was -0.262.
For `AUCGCUC`, the 7-mer Z-score was -0.316.

Sample 3
Target: Hepatocyte nuclear factor 3-beta, forkhead domain (FOXA2, Homo sapiens, UniProt Q9Y261, residues 142-269)
Technique: protein-binding microarray
Form: double-stranded DNA, one strand shown
Matrix: in vitro
Concentration: not given
Notes: k-mer, scored over probes, only values ≥0.25
Reading: higher = stronger binding
Residues (chain): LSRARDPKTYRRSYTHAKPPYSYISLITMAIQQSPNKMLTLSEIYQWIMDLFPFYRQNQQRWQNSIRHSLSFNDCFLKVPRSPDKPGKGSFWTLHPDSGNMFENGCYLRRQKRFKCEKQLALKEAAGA
`TACAGGTA` gave an E-score of 0.256.
For `ATGATATG`, the E-score was 0.292.
`GTTAAATA` has an E-score of 0.28.
The E-score of `AACAATAC` is reported as 0.343.
For `ACTATACT`, the E-score was 0.319.
`AGTATAAG` gave an E-score of 0.316.
`TATCCATA` gave an E-score of 0.305.
The E-score of `AATATTTA` is reported as 0.402.
`ATGTGATA` has an E-score of 0.36.
`AACTGATA` gave an E-score of 0.258.
The E-score of `ATTAGACA` is reported as 0.286.
`ATTATTGA` gave an E-score of 0.263.
For `GAGATACA`, the E-score was 0.264.
`CAAAATAC` has an E-score of 0.284.
With `CAAATACG` the E-score was 0.294.
For `AACAATTG`, the E-score was 0.262.
With `AACTTAGA` the E-score was 0.32.
For `CATAGCAA`, the E-score was 0.297.
For `ATATAATC`, the E-score was 0.259.
`TATTGAAA` has an E-score of 0.276.
For `ACATACAC`, the E-score was 0.329.

Sample 4
Target: Histone acetyltransferase KAT6A, winged helix 1, GST fusion (KAT6A, Homo sapiens, UniProt Q92794, residues 1-85)
Technique: protein binding microarray
Form: double-stranded DNA, one strand shown
Matrix: in vitro
Concentration: not given
Notes: 8-mer, flanks averaged, mean of 2 arrays, mostly near background
Reference: not given
Reading: higher = stronger binding
Construct (chain): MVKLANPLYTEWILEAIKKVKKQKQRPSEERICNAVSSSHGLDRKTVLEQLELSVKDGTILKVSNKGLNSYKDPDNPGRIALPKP
For `AGGGACAT`, the E-score was -0.0454.
`GGCCCTTA` has an E-score of -0.0363.
With `CTTTACTC` the E-score was -0.131.
With `CAGCTCGG` the E-score was 0.0095.
With `ATATTACA` the E-score was 0.0531.
With `GGCTACGA` the E-score was 0.0865.
`AAGACAGA` gave an E-score of -0.0599.
`AGAGCTAG` has an E-score of -0.0911.
With `ATTATGGG` the E-score was 0.00917.
`CGTGCTGC` has an E-score of 0.0405.
For `ACGCGCCC`, the E-score was 0.392.
For `GTGACATA`, the E-score was -0.207.
`AGTCACGA` gave an E-score of -0.238.
The E-score of `GTGTGTGA` is reported as -0.173.
`AGTCAAAC` gave an E-score of -0.1.
`CTATACGC` has an E-score of 0.176.
`ATGAAGAC` gave an E-score of -0.0979.
`AGGATCTG` gave an E-score of -0.297.
With `CGTCTTCC` the E-score was 0.153.
`ATTGCGGC` gave an E-score of 0.306.

Sample 5
Target: RING finger protein unkempt homolog, zinc fingers 1-6, GST-SBP tag (UNK, Homo sapiens, UniProt Q9C0B0, residues 30-357)
UniProt Q9C0B0, sequence (30-357, looked up): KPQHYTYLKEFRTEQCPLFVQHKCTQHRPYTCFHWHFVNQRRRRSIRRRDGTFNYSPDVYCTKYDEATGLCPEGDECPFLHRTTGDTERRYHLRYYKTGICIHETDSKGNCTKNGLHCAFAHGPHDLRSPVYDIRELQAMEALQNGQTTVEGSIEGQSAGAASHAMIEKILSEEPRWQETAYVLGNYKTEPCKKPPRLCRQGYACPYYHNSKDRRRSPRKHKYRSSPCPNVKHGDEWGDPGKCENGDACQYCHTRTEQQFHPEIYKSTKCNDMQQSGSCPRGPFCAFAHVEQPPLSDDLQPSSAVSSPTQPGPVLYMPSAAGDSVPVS
Technique: RNA Bind-n-Seq
Form: RNA
Matrix: in vitro
Concentration: not given
Notes: RNA with constant flanks, human and mouse sites, ends assumed
Reference: input RNA pool
Reading: higher = stronger binding
`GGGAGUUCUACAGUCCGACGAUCCAGACAGAAGUAGUGAUCCGAGACAUAGAUGAGAGGGCCAUGGAGCUCCUGAUUGACUUUGCAUAUACCUCCCAGAUCACUGUGGAAGAGGGCAAUGUUCAGACUCUCUUGCCUGCUGCUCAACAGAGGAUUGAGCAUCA` gave a bound/input enrichment of 0.255 ratio.
With `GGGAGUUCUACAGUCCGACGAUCAUCUGAAGACUCUGACACACAGAACAUAGUUUCUGGAGAGUCCUGUGAGCUUCCUUGUUGGAGUCAUUCAGAUCCAGAAAGCAUGAGCUUGUUUGAUGAAUAUUUUAAUGAUGAUUCAAUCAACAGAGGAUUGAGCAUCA` the bound/input enrichment was 0.248 ratio.
`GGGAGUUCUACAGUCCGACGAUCGGAAAAUAUGAAGGACUAACAAAGAAUUACAUGGAUUAUUUAUCCCGACUAUAUGAAAGAGAAAUCAAAGAUUUCUUUGAAGUUGCAAAGAUCAAGAUGACUGGCACAACUAAAGAAAGCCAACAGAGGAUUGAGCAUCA` gave a bound/input enrichment of 0.165 ratio.
The bound/input enrichment of `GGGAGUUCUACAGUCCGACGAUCGAGAGGAUUAGGUUCCAUCCUUUACGUGUUUAAAAAAAAGCAUAAAAACAUUUUAAAAACAUAGAAAAAUUCAGCAAACCAUUUUUAAAGUAGAAGAGGGUUUUAGGUAGAAAAACAUAUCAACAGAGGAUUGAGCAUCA` is reported as 61.6 ratio.
With `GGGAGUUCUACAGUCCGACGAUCUUGCCUAGCUUUACGAAUAUUGCUUUGUUUUCUGUUUAUGCAUAGCCUUGAUUUGUUUGACUCCCCUCCCCCCAUUUACAUGCAUGCAAUCAGACAGGCCACUAAGGUAAAAGAGUCUGCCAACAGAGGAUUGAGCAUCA` the bound/input enrichment was 0.908 ratio.
`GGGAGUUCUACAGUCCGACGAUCGCUGAAGGGUAUGUGAUUGGCAGCUGUAUUAAACACAUUCCAAUCGCAGGACGAGAUAUAACAUAUUUUAUUCAGCAACUGCUGAGAGACCGAGAAGUAGGAAUCCCUCCAGAACAAUCCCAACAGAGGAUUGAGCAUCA` has a bound/input enrichment of 0.128 ratio.
The bound/input enrichment of `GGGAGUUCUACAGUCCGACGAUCUCAAAAACUGGAGGCUCCUACGGUACUACAUGGGGUGCCUAUGGUUCUAAUUACUCUGGCGACAAAUGUGCAGGCCCUAAUGGCCAAGCCAAUGGUGACACUGUGAAUGCAACUCUAAUGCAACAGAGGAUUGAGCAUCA` is reported as 0.119 ratio.
With `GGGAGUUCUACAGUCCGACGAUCCACGGGCUGGUCAGUAUGACAUUUAAAGUGGAAAAGCCAGAAUAUUGAGUUAUUUCUUAACAAGUUUCGAGAGAGAAGGGAGCAAGACAAGAGCAAGCAACGGCUAUUAAAUGUCACAAUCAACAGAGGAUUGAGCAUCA` the bound/input enrichment was 0.296 ratio.
For `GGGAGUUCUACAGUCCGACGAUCACCAACAAAGACAAGGCUGAAUUCAUUCUGCCUAAUGGUCAAGAAGUAGAUCUCCCGAUUUCCUACUUAACUUCAGUCUCAUCUUUGAUUGUGUGGCAUCCAGCAAACCCUGCGGAGAAACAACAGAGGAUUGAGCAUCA`, the bound/input enrichment was 0.173 ratio.
With `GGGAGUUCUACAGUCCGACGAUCAAUGGUCCGUGUUUGUGCGUGUAUGUAUAUUUAUGGGCAUGGGUGCAUGCUUGGUGUGUAUUGUACAUGUCUGUAUCCAUGUGUCCCUGUACAAAGAUGAUACUCAUGUGUGGGCGUAGGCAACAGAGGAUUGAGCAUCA` the bound/input enrichment was 0.313 ratio.
`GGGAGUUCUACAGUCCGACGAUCCUGAGAGCAGGAGAGGUUCCGAAACCUUUUCCAACACAUUACAAAGAUUUGUGGGAUAACAAACAUGUGAAAAUGCCUUGUUCGGAACAAAACUUGUACCCUGUGGAAGAUGAGAAUGGUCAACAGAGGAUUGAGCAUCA` gave a bound/input enrichment of 0.137 ratio.
